Measured values of several laboratories.
A part holds a random share of what one study measured.

Study 1
Target: Histone acetyltransferase KAT6A, winged helix 2, GST fusion (KAT6A, Homo sapiens, UniProt Q92794, residues 85-181)
Method: protein binding microarray
Molecule type: double-stranded DNA, one strand shown
Sample: in vitro
Concentration: not given
Setting: 8-mer, flanks averaged, mean of 2 arrays, mostly near background
Reference: not given
Direction: higher = stronger binding
Target sequence (chain): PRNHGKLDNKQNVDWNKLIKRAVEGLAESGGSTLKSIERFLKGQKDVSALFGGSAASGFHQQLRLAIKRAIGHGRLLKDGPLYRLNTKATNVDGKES
| Sequence | E-score |
| --- | --- |
| AGAAGGAC | -0.0483 |
| AGATCTTG | -0.116 |
| TACTAGCA | 0.00967 |
| AGTCGAAG | 0.0734 |
| CATGATGG | -0.168 |
| CAAGAGAA | -0.0152 |
| ATGCGTCG | -0.0276 |
| AGCAGGAC | 0.0962 |
| ACGCTAAC | -0.025 |
| ATTCATGC | 0.00569 |
| CGGGAGTA | 0.0409 |
| CATTTCAC | -0.106 |
| TGTAAACA | -0.121 |
| ATGAGACC | -0.102 |
| CGTAACCC | -0.114 |
| ATATACGC | -0.121 |
| GGATCTAA | -0.0598 |
| GACCACGC | -0.061 |

Study 2
Target: Sal-like protein 4, full length isoform B (SALL4, Homo sapiens, UniProt Q9UJQ4-2, residues 1-616)
Method: universal PBM
Molecule type: double-stranded DNA, one strand shown
Sample: in vitro
Concentration: not given
Setting: 8-mer, flanks averaged, mean of replicates
Direction: higher = stronger binding
| Sequence | E-score |
| --- | --- |
| GACTCTCA | -0.068 |
| CGTCTACC | -0.105 |
| CTAGGGTA | -0.188 |
| AACGTCAC | -0.0291 |
| ATAACGAT | 0.11 |
| ATTCCACA | 0.0691 |
| CCGATAGA | -0.0971 |
| CCAAGTAA | 0.0995 |
| TATTCGGA | 0.0818 |
| CCAACTCA | -0.0473 |
| AACACTTG | -0.0417 |
| ATGGAGAA | 0.115 |
| GCGCAAAC | -0.196 |
| ACCTTGAC | -0.0944 |
| GTCAAGGA | -0.114 |
| AAAATCGA | 0.0237 |
| GATGTACC | 0.0712 |
| CTTAGGAA | 0.054 |
| AAGTGTGG | 0.0226 |
| TGGCTGAA | -0.0378 |
| ACCTACTA | 0.151 |
| ACCTGTGC | -0.037 |
| AGTCACGA | -0.00245 |
| TGACTGAA | 0.0256 |
| AGCCGGAC | -0.248 |

Study 3
Target: RNA binding protein fox-1 homolog 2, RRM domain, GST-SBP tag (RBFOX2, Homo sapiens, UniProt O43251-10, residues 100-194)
Method: RNA Bind-n-Seq
Molecule type: RNA
Sample: in vitro
Concentration: 365 nM
Setting: natural RNA segment, single round, ends assumed
Reference: no-protein control
Direction: higher = stronger binding
Residues (chain): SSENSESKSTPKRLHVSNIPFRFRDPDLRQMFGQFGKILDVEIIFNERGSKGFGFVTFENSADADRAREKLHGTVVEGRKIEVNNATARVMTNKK
| Sequence | RBNS enrichment (R) |
| --- | --- |
| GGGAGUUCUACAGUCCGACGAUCCCUCUUAUGUGUAUUGAUGGGGCAUGAGGAGCCCAGGCAAGGAGAGGCUCGUGGAGAGGCUGAGGGAAUGUUACUAAGUUUCCCUCCGUUUGUCUCCAGUCUGGUGCCAGUGGAAUUCUCGGGUGCCAA | 7.16 |
| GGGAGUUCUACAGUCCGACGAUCUUUUAUAAAUGCUUAUUUAUGUUAUAAAAUGGAGAUCAGAAAAAAAUUCUUUUUGCACUUUGGCCUAUCCAGUAUCUUAUUUAUUCUCUAGAUAAGCUAGGAUAUUAAUCUGGAAUUCUCGGGUGCCAA | 0.607 |
| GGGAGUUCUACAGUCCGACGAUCACUUUUUAAAUCUUAGAGAGAUUCCUACAGAUCUAUAAAGCAUGGAGCCAUUCCUGUAGUGAAGGGGGGGUUAUUAUACCCCAGGGCUUCAGAACUCACAGGACAGGGAUUGGAAUUCUCGGGUGCCAA | 1.17 |
| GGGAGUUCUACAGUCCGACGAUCAGGUGCUGUUAGACACAGAAGGUAAAUAUGUUCUUAACAAAAUGCUUUCUGAAAUUUUGAACCCCACUUAUCCAUUGUUUGAAACCAGCAGUUUAAACCUCCUGACCCACUGGAAUUCUCGGGUGCCAA | 0.447 |
| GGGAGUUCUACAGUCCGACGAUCUGUGUCUAGCAGCCUCUAGGAUCUUGUCAGAGCUGCACCUCUCUGUGAACUGGCCAUUCCUUUCGGUGCUGCUGUCCUUUUUGGGGGGGUUCCUGAUUUCUGUAUACAUGUGGAAUUCUCGGGUGCCAA | 0.331 |
| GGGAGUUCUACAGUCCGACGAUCGUGCAUUGGCAGUAAUUCACAAAUUAGUUGUUAUAUAAGUCUCUCUCAUCCCUUUCACACUAGAUUCUCAGACAUGAAUGAAUUUGUCGUUUGGAAGGAAAGCUGGGUAAUGGAAUUCUCGGGUGCCAA | 0.294 |
| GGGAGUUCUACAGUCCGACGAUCGGGGAAUGAGGGGCUGCAGGAAUCUCUGGAGAGCCUGGUGCUUCACGAUGCUGCUCUGGUGAUUCUUGUACCUAAUCUGGUGUGCUCACCAAUGAGUGAAAGGGAUCGUGUGGAAUUCUCGGGUGCCAA | 1.07 |
| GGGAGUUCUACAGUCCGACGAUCGGCUACCUAAGGUUAACAUGUCACUAGAGUAUUUUUAUGAGAGACAAACAUUAUAAAAAUCUGAUGGCAAAAGCAAAACAAAAUGGAAAGUAGGGGAGGUGGAUGUGACAUGGAAUUCUCGGGUGCCAA | 0.576 |
| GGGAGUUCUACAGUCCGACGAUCUGAGAUCGAUCUGUCCUGGCAGUUAACACGAUGUGCAACAGUGUGUUAGCAUGGAACAGAACGCUUUUCACAAAACAAAGGACUGUUUUACAAAUGAUUAUUCCGACAGUUGGAAUUCUCGGGUGCCAA | 0.283 |
| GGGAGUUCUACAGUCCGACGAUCCUAUGUGGCAUCAACCAGUGCCAUUACCUCCUGUGGCACCAUAGAGCCCAAUCUCAGGGCAGACAUUGCCAAGGUAAAGAAUGCACUCCAUGUUUAUACCAAAUUGCACAUGGAAUUCUCGGGUGCCAA | 0.85 |
| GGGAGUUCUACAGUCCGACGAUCGGUGUGCGUCUGGGCACGUCCUGCACACACAAUGCAAGUCCUGGCCUCCGCGCCCGCCCGCCCACGCGAGCCGUACCCGCCGCCAACUCUGUUAUUUAUGGUGUGACCCCUGGAAUUCUCGGGUGCCAA | 0.23 |
| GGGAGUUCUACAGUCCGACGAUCACUUGGAAAAACUCAUUUCUGUGCUGCAAAGCAAUGGUGGGGAGGCGCAGUGCCGCGACUGCUGUAGUGGUUUCUAGCCAAUAAUAAAACUUUAAUUGGUUGUUCAGUUGUGGAAUUCUCGGGUGCCAA | 0.266 |

Study 4
Target: Hepatocyte nuclear factor 3-alpha (Foxa1, Mus musculus, UniProt P35582, residues 1-468, full length assumed)
Sequence of UniProt P35582 (whole entry, looked up): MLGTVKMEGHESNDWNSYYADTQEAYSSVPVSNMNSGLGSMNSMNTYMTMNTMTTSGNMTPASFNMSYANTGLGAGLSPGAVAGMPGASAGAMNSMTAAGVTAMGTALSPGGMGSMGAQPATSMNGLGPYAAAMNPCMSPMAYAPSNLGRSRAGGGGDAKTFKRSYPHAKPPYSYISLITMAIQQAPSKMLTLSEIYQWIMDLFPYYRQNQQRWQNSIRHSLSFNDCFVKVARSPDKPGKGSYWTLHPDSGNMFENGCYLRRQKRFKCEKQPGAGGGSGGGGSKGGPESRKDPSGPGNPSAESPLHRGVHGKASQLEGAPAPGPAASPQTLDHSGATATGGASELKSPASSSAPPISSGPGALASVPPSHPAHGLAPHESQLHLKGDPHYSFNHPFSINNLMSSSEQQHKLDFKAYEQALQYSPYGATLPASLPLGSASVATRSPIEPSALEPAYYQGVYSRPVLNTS
Method: EMSA with sequencing
Molecule type: double-stranded DNA, one strand shown
Sample: in vitro
Concentration: 10 and 20 nM
Setting: whole designed probe, mean of two concentrations, ends assumed
Reference: negative control set to 0
Direction: higher = stronger binding
| Sequence | normalised bound fraction |
| --- | --- |
| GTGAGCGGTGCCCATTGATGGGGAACGTAGGGGTAATGAAAAACTTCTTGTGCAAGCGGCCATTAATCAGCAGTGTAACATTGCATAACGTGCTCCAAAGCACGTGTCATGGGATCAGAGTACACAGCTGCATAATGCAGGCCAGTGTCTGTGCCTCCTGCTGACCTTTTCCAATGCAGAACTCGAACCATGTGATGCATGCTTCTTGCCAAGTCACTTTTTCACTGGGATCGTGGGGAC | -0.0403 ratio |
| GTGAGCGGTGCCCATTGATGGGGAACCATCAAGGGTGTGTGATGAATGTTATGTCTGTGATTATGCAACAGGAGATGGGACTTTCCATCTTTCTAGCAGGCTTTCTCGACTCTCTCCCTAAATGACTTTGTTGATGTAAGCCTCCATGTGGTAAAGCCCTTGTGGCGGGAACTCAGGGCAGCCTCCGGCAACAGCCAGCAGGGAGCTGGGACTCAACAATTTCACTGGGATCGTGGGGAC | -0.0311 ratio |
| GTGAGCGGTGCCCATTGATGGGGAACTTCTTTTAAAAATCACTTTATTCTTTTAAAAGCTTAAATTTTGACCCATAAAATAATGCACAAATAATCCTCTAATCGTTTTAAAAGGACCTGTTGTTTACTTTGAAATGATATTAATGCTTTTAAAATTTTAAGTCAATTTTTTCCCTTCACTTCAGAATGCTATTCATGTTTAGATAGCTAATCTTACACATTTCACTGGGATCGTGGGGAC | 0.381 ratio |
| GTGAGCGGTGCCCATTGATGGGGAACAACGCTGTAGGTCAGAAAGATGTGCTTACCTTCACACAGAGCTGCAGAAATCAGGAAGGCTGCCAAGAGAGCCACGGCCAGCTTGGAAGTCAAGATTACACACAGTGAGATGGTTCCTTCCGGTGGTTTCTTCCTGGCTCTTGTCCTAGAAGCTAGAGTGCTCTGCTGTCTCTGAAAGTTTGTGCCTTATGGATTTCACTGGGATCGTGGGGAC | -0.0526 ratio |
| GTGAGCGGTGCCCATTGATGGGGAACGACAAACACATCTAGCTCCTAGCATGACTTCAGTGTGAAAAGGCTGGGCTTGGGAGAGCAGCAGGTAGACATGCCTATTAACATTGTGCTGCCAAGATTACTTTTTTTTAGATTACTTAAATCATGGACAGAAAGCCAAGTGTATAAGTGAAAACCCAAGGGACAATGACATGGGGTAGACTGCAGACCAAGATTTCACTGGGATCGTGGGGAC | -0.0276 ratio |
| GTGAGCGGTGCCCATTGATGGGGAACATCTTCCCCCTCTTCCTTGCCCCACCAGCTCACCTTCCCGGGTTATTTGCAGATAGGAAAATAAATAAAGCCGGCATTCGTTAACGCAGTTCTGGCGCAAACTGCTGTTTGCTCTGCATCTAACATGGTCCTTACGCGACGCCAGGCTCCGGGAGAGCAAAGCACCGTGTCAGGCGCATGATCCGGGCTCGCCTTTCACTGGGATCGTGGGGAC | 0.358 ratio |
| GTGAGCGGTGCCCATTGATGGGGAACTGTTCTGAAAGCATTGGGATGCATCCATGTTTTGCGTACAGACCCCCTTCTGTCTGGTGCACTCTGCCCTCTAAAAGCTTCCTGAATTGCTTTGTAATCTAGGCAGCTACTACAGCTGCAACTGTTGGGTTTGGACTTTTGCCAGCTTGAAATTTATCCCTGCCCTAATGCTATATATCTGGGAGCAGGCAGTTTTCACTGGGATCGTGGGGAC | -0.0816 ratio |
| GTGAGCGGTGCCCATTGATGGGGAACGTGTGTGCGCGCGCGTGTGTGTGTGTTTTCTTAAGCCGGGCTATTCAAACCCTGCTGCAATTCTCCGGTAAAGGGGCACAATGATTCATCGTTTATTTGCATTAGATTGCAAACGGCGCGGTTCGCGCACTTTGCAGCCGGCCCGGTGGAGCAGCCAGTGCCGGATTTCTCCCTTTTTTTGCAGATCTGCAGATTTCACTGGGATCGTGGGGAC | 0.446 ratio |

Repeated from above (study 1):
| Sequence | E-score |
| --- | --- |
| CATTTCAC | -0.106 |
| TGTAAACA | -0.121 |
| ATGAGACC | -0.102 |
| CGTAACCC | -0.114 |
| ATATACGC | -0.121 |
